Assay results gathered from unrelated publications.
Several values in a cell are separate wells, animals, samples, runs or records. Numbers after ± are the reported error.

`Cc1ccc(OCCN(C)C)cc1C(=O)N[C@H](C)c1cc(-c2cnn(CC(C)(C)O)c2)nc2ccccc12` has a viability of 100% and 87.1% (Vero E6; 125 µM).
For `CC(=O)N[C@@H](CCCNC(=N)N)C(=O)N[C@@H](Cc1c[nH]c2ccccc12)C(=O)N[C@H](C(=O)N[C@@H](Cc1c[nH]c2ccccc12)C(=O)N[C@@H](CCCNC(=N)N)C(=O)NCC(=O)N[C@@H](CO)C(=O)NCC(=O)N[C@@H](CCCNC(=N)N)C(=O)N[C@@H](Cc1c[nH]c2ccccc12)C(=O)N[C@H](C(=O)N[C@@H](Cc1c[nH]c2ccccc12)C(=O)N[C@@H](CCCNC(=N)N)C(N)=O)[C@@H](C)O)[C@@H](C)O`, the melting temperature was 78.9 °C (circular dichroism; phosphate buffer; 30 µM, pH 6.5).
For `COc1cc2c(cc1O)C(CCc1ccc(Cl)cc1)N([11CH3])CC2` (stereo not drawn), “peak brain radioactivity” read 0.9 %ID/mL (PET; Sprague-Dawley rat, male, brain; intravenous, 1 mg/kg, carrier added).
`CC(C)[C@@H]1NC(=O)CNC(=O)[C@H](CC(N)=O)NC(=O)[C@H](CCCNC(=N)N)NC(=O)[C@H](Cc2ccc(O)cc2)NC(=O)[C@H](C(C)C)NC(=O)[C@@H](NC(=O)[C@@H](NC(=O)[C@H](CC(N)=O)NC(=O)[C@H](Cc2c[nH]c3ccccc23)NC(=O)[C@H](C)NC(=O)[C@H](Cc2ccccc2)NC(=O)CNC(=O)[C@H](CCCCN)NC(=O)[C@H](Cc2ccccc2)NC(=O)[C@H](Cc2ccccc2)NC(=O)[C@H](CCCCN)NC(=O)OCC2c3ccccc3-c3ccccc32)C(C)C)CSSC[C@@H](C(=O)N[C@@H](Cc2c[nH]cn2)C(=O)N[C@@H](CCCNC(=N)N)C(=O)N[C@@H](CCCNC(=N)N)C(=O)N[C@@H](C)C(=O)N[C@@H](CC(N)=O)C(N)=O)NC(=O)[C@H](C(C)C)NC(=O)[C@H](CCCNC(=N)N)NC1=O` has a breathing score of 0 (ICR mouse; ip, 10 mg/kg; direction not given).
For `N=C(N)NCCC[C@H](NC(=O)[C@H](CCCNC(=N)N)NC(=O)[C@H](CCCNC(=N)N)NC(=O)[C@H](CCC(N)=O)NC(=O)[C@H](CCCNC(=N)N)NC(=O)[C@H](CCCNC(=N)N)NC(=O)[C@H](CCCCN)NC(=O)[C@H](CCCCN)NC(=O)[C@H](CCCNC(=N)N)NC(=O)[C@H](Cc1c[nH]c2ccccc12)NC(=O)[C@H](Cc1c[nH]c2ccccc12)NC(=O)[C@@H](N)CSSC[C@H](N)C(=O)N[C@@H](Cc1c[nH]c2ccccc12)C(=O)N[C@@H](Cc1c[nH]c2ccccc12)C(=O)N[C@@H](CCCNC(=N)N)C(=O)N[C@@H](CCCCN)C(=O)N[C@@H](CCCCN)C(=O)N[C@@H](CCCNC(=N)N)C(=O)N[C@@H](CCCNC(=N)N)C(=O)N[C@@H](CCC(N)=O)C(=O)N[C@@H](CCCNC(=N)N)C(=O)N[C@@H](CCCNC(=N)N)C(=O)N[C@@H](CCCNC(=N)N)C(=O)NCC(N)=O)C(=O)NCC(N)=O`, the TNF-alpha level was < 1 pg/mL (ELISA; Ai14 mice, cortex injection site; intracortical, dose not given, 3 days).
The body weight of `CCc1nn(C)c2nc(-c3ccc(C(=O)O)cc3)nc(NCc3ccccc3)c12` is reported as 23 g and 24 g and 22.2 g and 23.5 g (NSG mice; dose not given, day 10 of treatment).
For `O=C1NC2(CC2)COc2ncc(F)cc2[C@H]2COCCN2c2ccn3ncc1c3n2`, “mean corpuscular haemoglobin concentration” read 314 ± 5 g/L (Sprague-Dawley rat, female, blood; oral, 5 mg/kg/day, 4 weeks, end of treatment, subacute toxicity).
The tissue uptake of `CC[C@H](C)[C@H](NC(=O)[C@H](CCCCN)NC(=O)CNC(=O)[C@H](CC(C)C)NC(=O)[C@H](Cc1ccccc1)NC(=O)[C@H](CCCCN)NC(=O)[C@H](CO)NC(=O)[C@H](Cc1ccccc1)NC(=O)[C@H](Cc1c[nH]c2ccccc12)NC(=O)[C@H](CCC(N)=O)NC(=O)[C@@H](NC(=O)[C@H](Cc1ccccc1)NC(=O)CCCCCNC(=O)CN1CCN(CC(=O)O)CCN(CC(=O)O)CCN(CC(=O)O)CC1)C(C)C)C(=O)N[C@@H](CCC(=O)O)C(=O)N1CCC[C@H]1C(=O)N[C@@H](CC(=O)O)C(=O)N[C@H](C(=O)N[C@@H](CO)C(=O)N[C@@H](CCC(N)=O)C(=O)N[C@H](C(=O)N[C@@H](CCC(N)=O)C(=O)N[C@@H](CC(=O)O)C(=O)N1CCC[C@H]1C(=O)N[C@@H](CC(N)=O)C(=O)N[C@@H](CC(=O)O)C(=O)N[C@@H](CCC(N)=O)C(=O)N[C@@H](Cc1ccc(O)cc1)C(=O)N[C@@H](CCC(=O)O)C(=O)N1CCC[C@H]1C(=O)N[C@@H](Cc1ccccc1)C(=O)O)C(C)C)C(C)C` [copper-64 labelled] is reported as 1.32 ± 0.4 %ID/g (BALB/c mice, male, CT26 tumour-bearing, heart; 2 h, anti-PD1 plus anti-CTLA4 treated).
`Cc1ccc(OC[C@H]2CCCN2C)cc1C(=O)N[C@H](C)c1cc(-c2cnn(C)c2)nc2ccccc12` has a viability of 23.2% (African green monkey cells; 62.5 µM).
`CC(C)C[C@H](NC(=O)[C@H](Cc1ccc(O)cc1)NC(=O)[C@H](Cc1c[nH]cn1)NC(=O)[C@H](CC(N)=O)NC(=O)[C@H](CC(C)C)NC(=O)[C@H](C)NC(=O)[C@H](CC(C)C)NC(=O)CNC(=O)CNC(=O)[C@@H](NC(=O)[C@@H](NC(=O)[C@H](CCCCN)NC(=O)CNC(=O)[C@@H](NC(=O)[C@H](CCCCN)NC(=O)[C@H](CCCCN)NC(=O)[C@H](C)NC(=O)[C@H](CCCCN)NC(=O)[C@H](CCCNC(=N)N)NC(=O)[C@H](Cc1ccccc1)NC(=O)[C@H](Cc1c[nH]c2ccccc12)NC(=O)[C@H](CC(=O)O)NC(=O)[C@H](CCCCN)NC(=O)[C@H](Cc1c[nH]c2ccccc12)NC(=O)CN)C(C)C)[C@@H](C)O)C(C)C)C(N)=O` — result for “acute toxic concentration”: 5 µM (zebrafish embryos 4 hpf, E3 medium; 1 h).
`Oc1c(Br)cc(Br)c2nc3cc(C(F)(F)F)ccc3nc12` has a haemolysis of ≤ 1% (haemolysis; 200 µM).
With `CN(C)C(=O)c1cncc(-c2cnc3[nH]cc(-c4cc(OS(=O)(=O)F)ccc4C#N)c3c2)c1` the reactivity half-life was > 24 h (HPLC; acetonitrile/water/DMSO; 50 µM, 37 °C, DIPEA 20 eq, added: N-α-acetyl-lysine).
`CC(C)[C@H](NC(=O)[C@@H](NC(=O)[C@H](CCCNC(=N)N)NC(=O)[C@H](CCCNC(=N)N)NC(=O)[C@H](CCCNC(=N)N)NC(=O)[C@H](CCC(N)=O)NC(=O)[C@H](CCCNC(=N)N)NC(=O)[C@H](CCCNC(=N)N)NC(=O)[C@H](CCCCN)NC(=O)[C@H](CCCCN)NC(=O)[C@H](CCCNC(=N)N)NC(=O)CN)[C@@H](C)O)C(=O)N[C@H](C(=O)N[C@@H](CO)C(=O)N1CCC[C@H]1C(=O)O)[C@@H](C)O` has a kidney weight of 0.226 ± 0.011 g (ICR mouse, female, left kidney; intranasal, 10 mg/kg daily, 4 weeks).
`CC(C)=CCC/C(C)=C/CCn1cc(CC(P(=O)(O)O)P(=O)(O)O)nn1` has a Vd of 37.6 L/kg (CD-1 mouse, plasma; intravenous, 0.5 mg/kg, single dose).
For `CCCCCCCCCCCCCCCC(=O)N[C@@H](CCC(=O)NCCCC[C@H](NC(=O)[C@H](CC(=O)O)NC(=O)[C@H](CO)NC(=O)[C@@H](NC(=O)[C@H](Cc1ccccc1)NC(=O)[C@@H](NC(=O)CNC(=O)[C@H](CCC(N)=O)NC(=O)[C@H](C)NC(=O)[C@@H](Cc1ccc(O)cc1)NC(C)=O)[C@@H](C)O)[C@@H](C)O)C(=O)N[C@@H](CO)C(=O)N[C@@H](CCCCN)C(=O)N[C@@H](Cc1ccc(O)cc1)C(=O)N[C@@H](CC(C)C)C(=O)N[C@@H](CC(=O)O)C(=O)N[C@@H](CCC(=O)O)C(=O)N[C@@H](CCCNC(=N)N)C(=O)N[C@@H](C)C(=O)N[C@@H](C)C(=O)N[C@@H](CCC(N)=O)C(=O)N[C@@H](CC(=O)O)C(=O)N[C@@H](Cc1ccccc1)C(=O)N[C@H](C(=O)N[C@@H](CCC(N)=O)C(=O)N[C@@H](Cc1c[nH]c2ccccc12)C(=O)N[C@@H](CC(C)C)C(=O)N[C@@H](CC(C)C)C(=O)N[C@@H](CCC(=O)O)C(=O)NCC(=O)NCC(=O)N1CCC[C@H]1C(=O)N[C@@H](CO)C(=O)N[C@@H](CO)C(=O)NCC(=O)N[C@@H](C)C(=O)N1CCC[C@H]1C(=O)N1CCC[C@H]1C(=O)N1CCC[C@H]1C(=O)N[C@@H](CO)C(N)=O)C(C)C)C(=O)O`, the AUC(0-inf) was 2160 ng·h/mL (male cynomolgus monkey, plasma; subcutaneous, 0.0161 mg/kg).

Repeated from above:
`CC(C)[C@H](NC(=O)[C@@H](NC(=O)[C@H](CCCNC(=N)N)NC(=O)[C@H](CCCNC(=N)N)NC(=O)[C@H](CCCNC(=N)N)NC(=O)[C@H](CCC(N)=O)NC(=O)[C@H](CCCNC(=N)N)NC(=O)[C@H](CCCNC(=N)N)NC(=O)[C@H](CCCCN)NC(=O)[C@H](CCCCN)NC(=O)[C@H](CCCNC(=N)N)NC(=O)CN)[C@@H](C)O)C(=O)N[C@H](C(=O)N[C@@H](CO)C(=O)N1CCC[C@H]1C(=O)O)[C@@H](C)O` has a kidney weight of 0.226 ± 0.011 g (ICR mouse, female, left kidney; intranasal, 10 mg/kg daily, 4 weeks).
